Measurements from different studies.
Lines come from different studies, so protocols differ. ± gives the spread as reported.
Organism: HIV-1

SMILES | test | test system | conditions | scale | measurement | result
COc1cc2nc(NC3CCN(Cc4ccc(S(C)(=O)=O)cc4)CC3)nc(Oc3c(C)cc(C#N)cc3C)c2cc1OC | viral replication, luciferase reporter | TZM-bl, NL4-3 wild type | – | – | EC50 | 7.98 ± 2.66 nM
COc1ccc(S(=O)(=O)O)cc1N=Nc1c(S(=O)(=O)O)cc2cc(NCc3nc(CNc4cc(C)c(N=Nc5cc(S(=O)(=O)O)cc6cc(S(=O)(=O)O)cc(O)c56)cc4OC)nc(Nc4ccccc4)n3)ccc2c1O | cell-cell fusion | H9/HIV-1 IIIB and MT2 cells | – | – | IC50 | 5840 nM
COc1cc2nc(NC3CCN(Cc4ccc(C(N)=O)cc4)CC3)nc(Oc3c(C)cc(C#N)cc3C)c2cc1OC | viral replication, luciferase reporter | TZM-bl, NL4-3 wild type | – | – | EC50 | 1.16 ± 0.42 nM
CC(=O)Nc1ccn(C2OC(COC(C)=O)C3CC=CCC32)c(=O)n1 (mixture of isomers) | viral replication | human PBM cells, LAI | – | – | EC90 | > 100 µM
Cc1cc(C#N)cc(C)c1Oc1nc(NC2CCN(Cc3ccncc3)CC2)nc2ccccc12 | viral replication, luciferase reporter | TZM-bl, NL4-3 wild type | – | – | EC50 | 2.04 ± 0.71 nM
CC(=O)N[C@@H](CC(C)C)C(=O)N[C@@H](CS)C(=O)N[C@@H](CC(=O)O)C(=O)N[C@@H](CS)C(=O)N1CCC[C@H]1C(=O)N[C@@H](CC(N)=O)C(=O)NCC(=O)N1CCC[C@H]1C(=O)N[C@@H](Cc1c[nH]c2ccccc12)C(=O)N[C@H](C(=O)N[C@@H](Cc1c[nH]c2ccccc12)C(=O)N[C@H](C(=O)N1CCC[C@H]1C(=O)N[C@@H](C)C(=O)N[C@@H](Cc1ccccc1)C(=O)N[C@@H](CS)C(=O)N[C@@H](CCC(N)=O)C(=O)N[C@@H](C)C(=O)N[C@H](C(=O)NCC(=O)O)C(C)C)C(C)C)C(C)C | viral replication | CEMx174 SEAP reporter, NL4-3 | 10 µM | – | inhibition | 86%
Cc1cc(/C=C/C#N)cc(C)c1Oc1nc(NC2CCN(Cc3ccc(C(N)=O)cc3)CC2)nc2ccccc12 | viral replication, luciferase reporter | TZM-bl, NL4-3 wild type | – | – | EC50 | 6.2 ± 2.44 nM
NCCCC[C@H](NC(=O)[C@H](CC(N)=O)NC(=O)[C@H](CCCCNC(=O)[C@H](Cc1ccc(B(O)O)cc1)NC(=O)[C@H](Cc1ccc(O)cc1)NC(=O)[C@@H](N)Cc1ccc(B(O)O)cc1)NC(=O)[C@H](Cc1ccc(B(O)O)cc1)NC(=O)[C@H](Cc1ccc(O)cc1)NC(=O)[C@@H](N)Cc1ccc(B(O)O)cc1)C(=O)N[C@@H](CO)C(=O)N[C@@H](Cc1ccc(O)cc1)C(N)=O | measured: p24 | U87-CD4/CXCR4, NL4-3 | 10 µM | – | inhibition | ~90%
CC(=O)NCCN(CC(=O)NCCN(CC(=O)NCCN(CC(=O)NCCC(N)=O)C(=O)C[C@@H](N)CCCNC(=N)N)C(=O)C[C@@H](N)CCCCN)C(=O)C[C@@H](N)Cc1ccccc1 | – | PBMC, LAI | – | reference: CC50 over EC50 | selectivity index | > 4.5
C=C(C)C1CCc2c(c(C)cc(O)c(=O)c2O)C1 (stereo not shown) | – | – | concentration not given | – | anti-HIV activity | inactive
Cc1cc(C#N)cc(C)c1Oc1nc(NC2CCN(Cc3ccc(S(N)(=O)=O)cc3)CC2)nc2ccccc12 | viral replication, luciferase reporter | TZM-bl, NL4-3 wild type | – | – | EC50 | 1.62 ± 0.39 nM
COc1ccc2c(c1)OCCCC=CCCCCN(CC(O)C(Cc1ccccc1)NC(=O)OC1COC3OCCC13)S2(=O)=O (mixture of isomers) | viral cytopathic effect, MTT | MT-2, LAI | – | – | IC50 | 4 nM
COc1ccc(-n2c(SCCN(C)C)nnc2[C@H](Cc2ccccc2)NC(=O)Cc2c(C)[nH]c3ccccc23)cc1 | – | MT-4, wild type | – | reference: CC50 over EC50 | selectivity index | 27
CC(=O)NCCN(CC(=O)NCCN(CC(=O)NCCN(CC(=O)NCCC(N)=O)C(=O)C[C@@H](N)Cc1ccccc1)C(=O)C[C@@H](N)CCCNC(=N)N)C(=O)C[C@@H](N)CCCNC(=N)N | – | PBMC, LAI | – | reference: CC50 over EC50 | selectivity index | > 10.5
Nc1ncnc2c1ncn2C1OC(CO)C2CC=CCC21 (mixture of isomers) | viral replication | human PBM cells, LAI | – | – | EC90 | > 100 µM
Cc1cc(/C=C/C#N)cc(C)c1Oc1nc(NC2CCN(Cc3ccc(S(C)(=O)=O)cc3)CC2)nc2ncccc12 | viral replication, MTT | MT-4, IIIB | – | – | EC50 | 1.4 nM
COc1ccc(-n2c(SCCN3CCOCC3)nnc2[C@H](Cc2ccccc2)NC(=O)Cc2c(C)[nH]c3ccccc23)cc1 | – | MT-4, wild type | – | reference: CC50 over EC50 | selectivity index | 103
COc1cc2nc(NC3CCN(Cc4ccc(S(N)(=O)=O)cc4)CC3)nc(Oc3c(C)cc(C#N)cc3C)c2cc1OC | viral replication, luciferase reporter | TZM-bl, NL4-3 wild type | – | – | EC50 | 9.62 ± 3.15 nM
CC(=O)NCCN(CC(=O)NCCN(CC(=O)NCCN(CC(=O)NCCC(N)=O)C(=O)C[C@@H](N)Cc1ccccc1)C(=O)C[C@@H](N)Cc1ccccc1)C(=O)C[C@@H](N)CCCNC(=N)N | – | PBMC, LAI | – | reference: CC50 over EC50 | selectivity index | > 12
Nc1ccn(C2OC(CO)C3CC=CCC32)c(=O)n1 (mixture of isomers) | viral replication | human PBM cells, LAI | – | – | EC90 | > 100 µM
CC(=O)N[C@H](CCCNC(=N)N)C(=O)N[C@H](CCCNC(=N)N)C(=O)N[C@H](CCCNC(=N)N)C(=O)N[C@H](CCCNC(=N)N)C(=O)N[C@H](CCCNC(=N)N)C(=O)N[C@H](CCCNC(=N)N)C(=O)N[C@H](CCCNC(=N)N)C(=O)N[C@H](CCCNC(=N)N)C(=O)N[C@H](CCCNC(=N)N)C(N)=O | viral entry, luciferase reporter | PM1, HXB2 Env pseudotype | – | – | IC50 | ~300 nM
CC(=O)OCC1OC(n2cnc3c(Cl)nc(Cl)nc32)C2CC=CCC12 (mixture of isomers) | viral replication | human PBM cells, LAI | – | – | EC90 | 62.4 µM
CC(=O)NCCN(CC(=O)NCCN(CC(=O)NCCN(CC(=O)NCCC(N)=O)C(=O)C[C@@H](N)CCCCN)C(=O)C[C@@H](N)Cc1ccccc1)C(=O)C[C@@H](N)Cc1ccccc1 | – | PBMC, LAI | – | reference: CC50 over EC50 | selectivity index | > 4
COc1ccc(-n2c(SCc3ccc(S(N)(=O)=O)cc3)nnc2[C@H](Cc2ccccc2)NC(=O)Cc2c(C)[nH]c3ccccc23)cc1 | – | MT-4, wild type | – | reference: CC50 over EC50 | selectivity index | > 76
COc1cccc2c(Oc3c(C(F)(F)F)ccn(Cc4n[nH]c(=O)n4C)c3=O)cc(C)nc12 | – | MT4, wild type | – | reference: CC50 over EC50 | selectivity index | < 1
